Published values of several laboratories.
Numbered parts are unrelated; each lists some results of a single study.
Chain of UniProt Q86UE8 (whole entry, looked up): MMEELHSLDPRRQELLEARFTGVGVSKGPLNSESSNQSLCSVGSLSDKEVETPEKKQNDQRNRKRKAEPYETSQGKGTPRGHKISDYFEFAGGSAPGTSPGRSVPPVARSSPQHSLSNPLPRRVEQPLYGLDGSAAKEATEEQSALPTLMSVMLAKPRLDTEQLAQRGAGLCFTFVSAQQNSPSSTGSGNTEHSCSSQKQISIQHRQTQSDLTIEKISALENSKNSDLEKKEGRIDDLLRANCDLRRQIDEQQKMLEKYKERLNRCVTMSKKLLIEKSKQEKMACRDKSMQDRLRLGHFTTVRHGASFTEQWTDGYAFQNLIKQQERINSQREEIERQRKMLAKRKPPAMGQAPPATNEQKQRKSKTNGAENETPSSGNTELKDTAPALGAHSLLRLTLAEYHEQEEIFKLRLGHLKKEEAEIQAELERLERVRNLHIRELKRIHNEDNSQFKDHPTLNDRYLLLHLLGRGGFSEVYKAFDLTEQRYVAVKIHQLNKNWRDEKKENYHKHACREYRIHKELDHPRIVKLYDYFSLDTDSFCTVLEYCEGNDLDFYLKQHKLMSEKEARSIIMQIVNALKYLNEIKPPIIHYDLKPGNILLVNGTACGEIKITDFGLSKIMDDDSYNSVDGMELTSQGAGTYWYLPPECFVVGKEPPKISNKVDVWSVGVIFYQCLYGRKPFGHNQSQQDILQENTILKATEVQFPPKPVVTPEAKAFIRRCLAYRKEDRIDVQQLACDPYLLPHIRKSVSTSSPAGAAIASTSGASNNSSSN
Chain of UniProt P06239 (whole entry, looked up): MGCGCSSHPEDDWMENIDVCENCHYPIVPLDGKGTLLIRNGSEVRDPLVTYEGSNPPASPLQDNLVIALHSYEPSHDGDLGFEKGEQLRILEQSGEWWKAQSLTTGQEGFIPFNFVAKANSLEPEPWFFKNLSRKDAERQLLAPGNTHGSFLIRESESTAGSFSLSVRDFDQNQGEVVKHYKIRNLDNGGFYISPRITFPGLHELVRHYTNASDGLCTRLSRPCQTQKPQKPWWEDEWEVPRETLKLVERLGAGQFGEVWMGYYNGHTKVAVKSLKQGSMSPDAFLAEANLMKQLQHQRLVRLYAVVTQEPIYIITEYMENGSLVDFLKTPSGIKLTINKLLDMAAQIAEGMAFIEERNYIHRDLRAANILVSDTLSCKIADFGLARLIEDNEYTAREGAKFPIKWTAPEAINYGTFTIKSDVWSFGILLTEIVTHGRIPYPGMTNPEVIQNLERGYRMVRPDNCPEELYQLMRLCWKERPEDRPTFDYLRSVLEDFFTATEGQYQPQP
Chain of UniProt Q9UL54 (whole entry, looked up): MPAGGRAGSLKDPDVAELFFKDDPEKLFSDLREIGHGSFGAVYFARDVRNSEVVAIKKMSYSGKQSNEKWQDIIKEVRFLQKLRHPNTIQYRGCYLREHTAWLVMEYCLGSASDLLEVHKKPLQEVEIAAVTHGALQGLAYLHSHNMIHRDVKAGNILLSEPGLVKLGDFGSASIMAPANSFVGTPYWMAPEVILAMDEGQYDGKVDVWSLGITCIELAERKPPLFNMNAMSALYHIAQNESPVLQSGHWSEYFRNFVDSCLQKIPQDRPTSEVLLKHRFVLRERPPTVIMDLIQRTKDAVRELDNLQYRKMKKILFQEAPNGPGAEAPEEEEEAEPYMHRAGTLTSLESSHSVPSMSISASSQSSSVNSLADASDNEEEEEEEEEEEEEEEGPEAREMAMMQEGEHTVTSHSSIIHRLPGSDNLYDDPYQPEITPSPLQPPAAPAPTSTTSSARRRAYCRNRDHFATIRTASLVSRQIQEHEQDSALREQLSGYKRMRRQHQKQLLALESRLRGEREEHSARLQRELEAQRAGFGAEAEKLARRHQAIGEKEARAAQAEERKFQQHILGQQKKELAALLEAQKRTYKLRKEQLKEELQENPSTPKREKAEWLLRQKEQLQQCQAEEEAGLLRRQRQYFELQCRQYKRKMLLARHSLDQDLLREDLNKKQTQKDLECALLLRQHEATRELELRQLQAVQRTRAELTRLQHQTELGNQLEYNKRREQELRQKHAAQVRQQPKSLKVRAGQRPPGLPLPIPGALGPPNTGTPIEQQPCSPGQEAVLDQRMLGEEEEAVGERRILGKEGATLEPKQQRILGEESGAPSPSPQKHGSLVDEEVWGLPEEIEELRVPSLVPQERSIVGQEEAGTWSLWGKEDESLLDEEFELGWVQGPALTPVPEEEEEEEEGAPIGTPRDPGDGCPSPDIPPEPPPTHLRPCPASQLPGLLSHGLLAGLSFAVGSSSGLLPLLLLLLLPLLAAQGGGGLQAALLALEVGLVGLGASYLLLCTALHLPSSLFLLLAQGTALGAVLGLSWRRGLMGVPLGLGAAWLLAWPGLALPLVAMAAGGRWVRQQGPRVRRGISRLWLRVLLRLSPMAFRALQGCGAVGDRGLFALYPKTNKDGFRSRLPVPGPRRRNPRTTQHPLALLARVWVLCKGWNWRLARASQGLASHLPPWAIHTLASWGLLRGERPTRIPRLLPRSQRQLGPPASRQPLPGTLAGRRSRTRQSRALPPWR
Chain of UniProt P31749 (whole entry, looked up): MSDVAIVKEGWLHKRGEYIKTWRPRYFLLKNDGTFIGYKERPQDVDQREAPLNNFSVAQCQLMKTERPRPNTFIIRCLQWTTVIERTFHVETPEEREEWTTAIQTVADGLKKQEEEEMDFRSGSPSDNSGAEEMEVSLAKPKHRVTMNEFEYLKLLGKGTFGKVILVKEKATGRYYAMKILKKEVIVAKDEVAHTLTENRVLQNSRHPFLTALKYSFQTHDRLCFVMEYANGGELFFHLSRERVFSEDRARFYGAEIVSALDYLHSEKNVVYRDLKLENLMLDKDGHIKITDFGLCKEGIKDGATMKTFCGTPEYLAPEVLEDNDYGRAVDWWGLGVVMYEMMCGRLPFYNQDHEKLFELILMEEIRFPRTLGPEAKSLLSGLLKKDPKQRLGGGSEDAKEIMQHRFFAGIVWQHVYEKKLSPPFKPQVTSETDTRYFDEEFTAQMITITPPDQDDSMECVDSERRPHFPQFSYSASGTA
Chain of UniProt P19784 (whole entry, looked up): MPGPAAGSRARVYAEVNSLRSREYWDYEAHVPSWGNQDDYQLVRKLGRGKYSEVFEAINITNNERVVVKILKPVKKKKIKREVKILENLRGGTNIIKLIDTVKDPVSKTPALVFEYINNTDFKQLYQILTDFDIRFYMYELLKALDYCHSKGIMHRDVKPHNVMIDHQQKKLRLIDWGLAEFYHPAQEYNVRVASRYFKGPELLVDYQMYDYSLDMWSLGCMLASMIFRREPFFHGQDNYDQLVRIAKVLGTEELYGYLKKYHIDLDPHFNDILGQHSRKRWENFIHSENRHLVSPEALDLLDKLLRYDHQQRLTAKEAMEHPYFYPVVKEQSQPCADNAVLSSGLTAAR

Series 1
SMILES: CCN1/C(=C/C=C2\CCCC(/C=C/C3=[N+](CC)c4ccccc4C3(C)C)=C2NCCCCCCCCN2CCC(Nc3nc4ccccc4n3Cc3ccc(F)cc3)CC2)C(C)(C)c2ccccc21
Cell line: U-87 MG
Concentration: concentration not given
Reference: DMSO
assay | log2 fold change
measured: PRSS12 mRNA | -1.28
measured: PCDHGA9 mRNA | -1.22
measured: CKAP2 mRNA | -1.26
measured: ATP8B3 mRNA | -1.6
measured: DPF2 mRNA | 0.819
measured: TDRD9 mRNA | 3.75
measured: CLCN4 mRNA | -1.08
measured: BMPR1B mRNA | 1.46
measured: GJA1 mRNA | -2.36
measured: SPACA6 mRNA | -1.41
measured: NFKBIA mRNA | 1.03
measured: HSPA1B mRNA | 3.56
measured: TOM1L1 mRNA | 0.979

Series 2
SMILES: C[C@@H]1CN(c2ccc(-c3cc(C(=O)NCCOCCOCCOCCOCCNC(=O)/C=C/c4[nH]cc(C(=O)N[C@@H](CC(N)=O)c5ccc(F)c(Cl)c5)c4-c4ccc(Cl)cc4F)ccc3F)cc2NC(=O)c2c[nH]c(=O)cc2C(F)(F)F)C[C@H](C)N1C
Observed: thermal unfolding
Technique: differential scanning fluorimetry
Concentration: 5.5 µM
Direction: higher = more unfolded
WDR5: WD repeat-containing protein 5 (WDR5, Homo sapiens, UniProt P61964)
DCAF1: DDB1- and CUL4-associated factor 1 (DCAF1, Homo sapiens, UniProt Q9Y4B6)
Chain of UniProt Q9Y4B6 (whole entry, looked up): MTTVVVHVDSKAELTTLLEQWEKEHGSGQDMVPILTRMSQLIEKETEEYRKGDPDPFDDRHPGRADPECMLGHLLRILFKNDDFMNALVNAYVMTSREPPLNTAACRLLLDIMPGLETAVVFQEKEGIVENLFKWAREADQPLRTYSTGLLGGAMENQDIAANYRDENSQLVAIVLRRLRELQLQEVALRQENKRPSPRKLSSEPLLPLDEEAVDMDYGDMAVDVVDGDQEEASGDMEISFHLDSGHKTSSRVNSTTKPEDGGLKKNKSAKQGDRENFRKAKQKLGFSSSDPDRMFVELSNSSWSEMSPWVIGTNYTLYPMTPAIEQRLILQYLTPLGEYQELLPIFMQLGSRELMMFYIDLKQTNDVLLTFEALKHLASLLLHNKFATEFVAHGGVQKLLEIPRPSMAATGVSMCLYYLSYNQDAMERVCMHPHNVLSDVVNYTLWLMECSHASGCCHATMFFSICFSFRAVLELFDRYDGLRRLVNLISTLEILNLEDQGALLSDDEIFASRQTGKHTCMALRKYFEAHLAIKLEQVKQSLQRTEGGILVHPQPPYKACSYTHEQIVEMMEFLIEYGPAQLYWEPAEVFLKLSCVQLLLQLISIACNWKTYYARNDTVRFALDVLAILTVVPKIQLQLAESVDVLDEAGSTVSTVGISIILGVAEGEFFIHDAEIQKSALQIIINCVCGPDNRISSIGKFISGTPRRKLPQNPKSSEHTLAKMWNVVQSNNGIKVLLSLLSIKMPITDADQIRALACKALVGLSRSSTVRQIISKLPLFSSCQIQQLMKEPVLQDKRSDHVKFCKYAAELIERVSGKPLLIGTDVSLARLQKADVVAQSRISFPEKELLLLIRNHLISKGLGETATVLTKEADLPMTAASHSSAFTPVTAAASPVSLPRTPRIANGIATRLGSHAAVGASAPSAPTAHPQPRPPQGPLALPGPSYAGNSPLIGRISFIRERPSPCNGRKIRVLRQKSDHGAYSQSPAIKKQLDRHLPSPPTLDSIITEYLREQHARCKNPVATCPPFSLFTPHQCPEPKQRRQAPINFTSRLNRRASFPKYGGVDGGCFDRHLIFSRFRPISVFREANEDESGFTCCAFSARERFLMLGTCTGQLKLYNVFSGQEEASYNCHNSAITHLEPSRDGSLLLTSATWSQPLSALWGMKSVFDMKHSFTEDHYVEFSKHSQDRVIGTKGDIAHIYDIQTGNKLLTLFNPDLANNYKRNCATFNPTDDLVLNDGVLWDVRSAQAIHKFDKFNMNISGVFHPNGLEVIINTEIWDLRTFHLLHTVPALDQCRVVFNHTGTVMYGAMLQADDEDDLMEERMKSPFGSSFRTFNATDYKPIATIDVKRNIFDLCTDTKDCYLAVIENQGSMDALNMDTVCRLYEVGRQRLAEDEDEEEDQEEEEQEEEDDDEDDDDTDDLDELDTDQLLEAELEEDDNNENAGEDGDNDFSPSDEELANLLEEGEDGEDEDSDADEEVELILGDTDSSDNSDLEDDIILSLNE
target | setting | SYPRO Orange fluorescence
WDR5 | 27.6 °C | 12900 a.u.
DCAF1 | 58.61 °C | 34000 a.u.
DCAF1 | 57.01 °C | 27200 a.u.
DCAF1 | 36 °C | 10400 a.u.
WDR5 | 50.4 °C | 16500 a.u.
WDR5 | 25.2 °C | 12800 a.u.
WDR5 | 51.8 °C | 16800 a.u.
DCAF1 | 88.41 °C | 36700 a.u.
WDR5 | 46.4 °C | 15600 a.u.
WDR5 | 37 °C | 13600 a.u.
DCAF1 | 53.81 °C | 19200 a.u.

Series 3
SMILES: Cc1ccc(O)c(C)c1-c1cnc2[nH]c(-c3cnc(N4CCC(CCN5CCN(c6ccc(N7CCC(=O)NC7=O)cc6F)CC5)CC4)nc3)cc2c1C#N
Target: Membrane-associated tyrosine- and threonine-specific cdc2-inhibitory kinase (PKMYT1, Homo sapiens, UniProt Q99640)
Action: degrader
Technique: automated immunoblot (Jess)
Reference: GAPDH
Residues (Q99640 1-499): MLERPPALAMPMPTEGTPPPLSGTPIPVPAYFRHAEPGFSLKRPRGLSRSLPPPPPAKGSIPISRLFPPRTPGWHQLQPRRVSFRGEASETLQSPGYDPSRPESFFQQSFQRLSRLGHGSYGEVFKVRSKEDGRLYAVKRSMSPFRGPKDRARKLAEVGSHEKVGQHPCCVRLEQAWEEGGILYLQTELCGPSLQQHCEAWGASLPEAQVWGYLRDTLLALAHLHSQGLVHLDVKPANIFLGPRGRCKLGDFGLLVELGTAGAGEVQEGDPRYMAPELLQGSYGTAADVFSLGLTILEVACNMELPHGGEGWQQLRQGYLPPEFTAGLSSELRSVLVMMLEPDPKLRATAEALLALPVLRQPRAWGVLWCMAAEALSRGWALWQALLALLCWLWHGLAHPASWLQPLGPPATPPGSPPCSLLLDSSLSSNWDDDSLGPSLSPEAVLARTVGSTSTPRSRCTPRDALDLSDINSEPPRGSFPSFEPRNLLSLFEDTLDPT
setting | protein level [%]
10 nM | 95
0.1 nM | 64
100 nM | 90.2
1000 nM | 68.1
0.01 nM | 90.7
1 nM | 67

Series 4
SMILES: CC[C@@]1(c2cccc(C(F)(F)F)c2)C2=C(Nc3n[nH]cc31)[C@H](F)C(C)(C)CC2=O (single isomer, unassigned)
Concentration: 1 µM
target | assay | scale | remaining binding [%]
TLK2 (Homo sapiens, UniProt Q86UE8) | binding, competition with immobilised ligand | – | 97
PHKG1 (Homo sapiens, UniProt Q16816) | binding, competition with immobilised ligand | – | 92
TAOK2 (Homo sapiens, UniProt Q9UL54) | kinase binding, KINOMEscan | reference: DMSO control | 69
HIPK4 (Homo sapiens, UniProt Q8NE63) | binding, competition with immobilised ligand | – | 99
PLK3 (Homo sapiens, UniProt Q9H4B4) | binding, competition with immobilised ligand | – | 95
STK26 (Homo sapiens, UniProt Q9P289) | binding, competition with immobilised ligand | – | 100
CSNK2A2 (Homo sapiens, UniProt P19784) | kinase binding, KINOMEscan | reference: DMSO control | 100
AKT1 (Homo sapiens, UniProt P31749) | kinase binding, KINOMEscan | reference: DMSO control | 100
Myosin-IIIa (MYO3A, Homo sapiens, UniProt Q8NEV4) | kinase binding, KINOMEscan | reference: DMSO control | 100
LRRK2 (Homo sapiens, UniProt Q5S007, G2019S) | kinase binding, KINOMEscan | reference: DMSO control | 81
FLT3 (Homo sapiens, UniProt P36888, R834Q) | kinase binding, KINOMEscan | reference: DMSO control | 100
MAK (Homo sapiens, UniProt P20794) | binding, competition with immobilised ligand | – | 49
LCK (Homo sapiens, UniProt P06239) | kinase binding, KINOMEscan | reference: DMSO control | 100
MAP4K5 (Homo sapiens, UniProt Q9Y4K4) | kinase binding, KINOMEscan | reference: DMSO control | 100
Insulin receptor (INSR, Homo sapiens, UniProt P06213) | kinase binding, KINOMEscan | reference: DMSO control | 100

Some of these lines once more (series 4):
target | assay | scale | remaining binding [%]
PLK3 (Homo sapiens, UniProt Q9H4B4) | binding, competition with immobilised ligand | – | 95
MAK (Homo sapiens, UniProt P20794) | binding, competition with immobilised ligand | – | 49
AKT1 (Homo sapiens, UniProt P31749) | kinase binding, KINOMEscan | reference: DMSO control | 100
CSNK2A2 (Homo sapiens, UniProt P19784) | kinase binding, KINOMEscan | reference: DMSO control | 100
Myosin-IIIa (MYO3A, Homo sapiens, UniProt Q8NEV4) | kinase binding, KINOMEscan | reference: DMSO control | 100
LRRK2 (Homo sapiens, UniProt Q5S007, G2019S) | kinase binding, KINOMEscan | reference: DMSO control | 81
MAP4K5 (Homo sapiens, UniProt Q9Y4K4) | kinase binding, KINOMEscan | reference: DMSO control | 100
LCK (Homo sapiens, UniProt P06239) | kinase binding, KINOMEscan | reference: DMSO control | 100
